Experimental data collected from several papers.
Parts stem from different laboratories: compare values within a part only. Several values in a cell are separate wells, animals, samples, runs or records.
UniProt Q15819, sequence (whole entry, looked up): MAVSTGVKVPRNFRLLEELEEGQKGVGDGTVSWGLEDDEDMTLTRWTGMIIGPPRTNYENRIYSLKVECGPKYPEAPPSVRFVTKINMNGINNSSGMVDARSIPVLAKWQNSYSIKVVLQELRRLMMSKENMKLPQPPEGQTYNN
UniProt Q9Y2H9, sequence (whole entry, looked up): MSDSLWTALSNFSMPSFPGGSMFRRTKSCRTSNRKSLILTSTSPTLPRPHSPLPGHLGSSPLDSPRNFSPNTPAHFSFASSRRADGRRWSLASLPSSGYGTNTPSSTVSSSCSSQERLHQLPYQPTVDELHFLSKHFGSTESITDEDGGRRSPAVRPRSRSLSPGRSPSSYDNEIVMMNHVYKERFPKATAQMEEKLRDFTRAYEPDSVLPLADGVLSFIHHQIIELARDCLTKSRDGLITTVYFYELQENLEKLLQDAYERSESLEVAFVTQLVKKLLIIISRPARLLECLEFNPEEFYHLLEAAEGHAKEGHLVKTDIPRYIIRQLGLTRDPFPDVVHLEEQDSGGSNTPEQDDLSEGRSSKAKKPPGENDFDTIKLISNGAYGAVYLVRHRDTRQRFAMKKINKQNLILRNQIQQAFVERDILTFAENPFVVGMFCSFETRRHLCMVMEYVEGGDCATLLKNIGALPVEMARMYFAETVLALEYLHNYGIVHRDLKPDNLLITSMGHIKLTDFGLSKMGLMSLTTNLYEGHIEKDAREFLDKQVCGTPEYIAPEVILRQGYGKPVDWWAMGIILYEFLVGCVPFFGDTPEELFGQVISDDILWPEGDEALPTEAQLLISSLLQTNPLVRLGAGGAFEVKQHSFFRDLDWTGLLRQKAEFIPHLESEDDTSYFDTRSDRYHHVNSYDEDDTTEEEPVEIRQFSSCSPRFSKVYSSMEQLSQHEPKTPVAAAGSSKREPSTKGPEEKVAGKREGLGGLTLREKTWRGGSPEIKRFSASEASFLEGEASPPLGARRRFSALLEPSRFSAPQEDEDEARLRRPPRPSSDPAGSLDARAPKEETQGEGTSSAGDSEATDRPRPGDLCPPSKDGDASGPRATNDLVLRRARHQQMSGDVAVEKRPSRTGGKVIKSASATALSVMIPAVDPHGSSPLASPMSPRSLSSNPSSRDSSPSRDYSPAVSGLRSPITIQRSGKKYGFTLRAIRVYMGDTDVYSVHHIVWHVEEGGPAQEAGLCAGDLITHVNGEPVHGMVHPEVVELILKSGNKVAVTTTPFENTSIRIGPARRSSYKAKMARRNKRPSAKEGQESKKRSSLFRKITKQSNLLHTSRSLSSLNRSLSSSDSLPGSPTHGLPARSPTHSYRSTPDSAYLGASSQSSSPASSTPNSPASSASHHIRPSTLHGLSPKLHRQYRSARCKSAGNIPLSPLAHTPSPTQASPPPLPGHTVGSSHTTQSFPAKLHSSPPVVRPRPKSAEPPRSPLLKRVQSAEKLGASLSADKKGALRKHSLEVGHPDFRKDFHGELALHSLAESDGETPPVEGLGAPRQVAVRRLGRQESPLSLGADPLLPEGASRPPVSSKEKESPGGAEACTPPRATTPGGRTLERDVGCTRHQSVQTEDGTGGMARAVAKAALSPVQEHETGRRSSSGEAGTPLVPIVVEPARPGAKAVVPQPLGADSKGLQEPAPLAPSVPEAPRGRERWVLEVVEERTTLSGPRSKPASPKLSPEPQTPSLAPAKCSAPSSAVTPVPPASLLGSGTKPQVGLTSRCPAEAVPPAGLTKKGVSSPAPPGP
UniProt Q13404, sequence (whole entry, looked up): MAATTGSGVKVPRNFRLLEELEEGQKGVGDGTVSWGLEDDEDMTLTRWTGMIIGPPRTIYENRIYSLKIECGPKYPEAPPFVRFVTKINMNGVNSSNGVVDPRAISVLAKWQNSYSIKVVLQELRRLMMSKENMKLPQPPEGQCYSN
UniProt P32298, sequence (whole entry, looked up): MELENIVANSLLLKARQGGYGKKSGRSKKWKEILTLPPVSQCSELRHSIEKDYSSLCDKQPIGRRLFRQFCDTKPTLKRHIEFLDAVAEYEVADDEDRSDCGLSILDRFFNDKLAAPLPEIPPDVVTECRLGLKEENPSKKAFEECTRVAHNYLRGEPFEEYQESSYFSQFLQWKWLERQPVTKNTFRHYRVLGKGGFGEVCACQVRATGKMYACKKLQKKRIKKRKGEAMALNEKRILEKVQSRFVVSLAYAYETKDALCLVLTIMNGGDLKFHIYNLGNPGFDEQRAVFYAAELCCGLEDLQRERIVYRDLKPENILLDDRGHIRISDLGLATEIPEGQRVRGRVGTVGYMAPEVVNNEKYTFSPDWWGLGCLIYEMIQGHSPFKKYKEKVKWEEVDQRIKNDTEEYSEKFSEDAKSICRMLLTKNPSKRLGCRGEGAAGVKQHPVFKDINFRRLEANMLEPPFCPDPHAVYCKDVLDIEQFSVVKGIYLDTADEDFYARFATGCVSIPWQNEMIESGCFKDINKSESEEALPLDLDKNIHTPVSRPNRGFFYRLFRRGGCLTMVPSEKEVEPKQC
UniProt Q8N4C8, sequence (whole entry, looked up): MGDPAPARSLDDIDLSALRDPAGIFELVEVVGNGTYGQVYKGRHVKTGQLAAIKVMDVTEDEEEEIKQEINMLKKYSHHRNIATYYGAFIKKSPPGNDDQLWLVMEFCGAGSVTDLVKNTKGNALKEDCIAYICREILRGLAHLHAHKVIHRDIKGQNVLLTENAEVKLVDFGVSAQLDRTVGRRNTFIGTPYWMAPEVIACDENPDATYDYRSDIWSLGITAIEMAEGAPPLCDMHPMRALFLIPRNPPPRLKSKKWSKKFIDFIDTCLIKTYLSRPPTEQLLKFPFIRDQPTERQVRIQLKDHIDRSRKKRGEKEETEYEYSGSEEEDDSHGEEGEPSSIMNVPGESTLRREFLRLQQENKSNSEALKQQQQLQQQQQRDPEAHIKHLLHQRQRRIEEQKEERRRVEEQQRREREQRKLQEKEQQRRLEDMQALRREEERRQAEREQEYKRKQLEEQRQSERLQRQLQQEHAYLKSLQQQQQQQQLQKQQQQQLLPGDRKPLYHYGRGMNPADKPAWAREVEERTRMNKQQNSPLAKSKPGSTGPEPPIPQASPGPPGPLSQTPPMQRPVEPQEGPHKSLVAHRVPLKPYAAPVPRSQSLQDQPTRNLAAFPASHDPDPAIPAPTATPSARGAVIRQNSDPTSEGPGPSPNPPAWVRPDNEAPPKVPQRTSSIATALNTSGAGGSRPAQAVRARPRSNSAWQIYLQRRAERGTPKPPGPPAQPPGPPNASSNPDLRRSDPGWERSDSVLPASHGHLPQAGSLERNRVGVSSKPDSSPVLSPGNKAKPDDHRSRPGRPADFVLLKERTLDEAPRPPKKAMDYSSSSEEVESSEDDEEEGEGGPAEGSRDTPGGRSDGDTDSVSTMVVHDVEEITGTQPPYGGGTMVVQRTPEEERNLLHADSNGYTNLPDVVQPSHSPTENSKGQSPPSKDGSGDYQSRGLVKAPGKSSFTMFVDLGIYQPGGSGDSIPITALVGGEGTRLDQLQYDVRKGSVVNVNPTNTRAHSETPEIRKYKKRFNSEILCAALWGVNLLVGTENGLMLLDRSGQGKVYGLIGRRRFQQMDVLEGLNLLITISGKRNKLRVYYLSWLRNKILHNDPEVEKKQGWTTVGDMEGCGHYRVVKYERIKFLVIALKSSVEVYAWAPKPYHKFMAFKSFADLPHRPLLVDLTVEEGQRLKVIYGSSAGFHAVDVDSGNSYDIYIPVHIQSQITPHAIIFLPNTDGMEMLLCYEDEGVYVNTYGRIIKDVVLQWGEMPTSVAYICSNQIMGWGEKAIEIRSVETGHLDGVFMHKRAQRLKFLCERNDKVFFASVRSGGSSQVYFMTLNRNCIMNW
UniProt P29597, sequence (whole entry, looked up): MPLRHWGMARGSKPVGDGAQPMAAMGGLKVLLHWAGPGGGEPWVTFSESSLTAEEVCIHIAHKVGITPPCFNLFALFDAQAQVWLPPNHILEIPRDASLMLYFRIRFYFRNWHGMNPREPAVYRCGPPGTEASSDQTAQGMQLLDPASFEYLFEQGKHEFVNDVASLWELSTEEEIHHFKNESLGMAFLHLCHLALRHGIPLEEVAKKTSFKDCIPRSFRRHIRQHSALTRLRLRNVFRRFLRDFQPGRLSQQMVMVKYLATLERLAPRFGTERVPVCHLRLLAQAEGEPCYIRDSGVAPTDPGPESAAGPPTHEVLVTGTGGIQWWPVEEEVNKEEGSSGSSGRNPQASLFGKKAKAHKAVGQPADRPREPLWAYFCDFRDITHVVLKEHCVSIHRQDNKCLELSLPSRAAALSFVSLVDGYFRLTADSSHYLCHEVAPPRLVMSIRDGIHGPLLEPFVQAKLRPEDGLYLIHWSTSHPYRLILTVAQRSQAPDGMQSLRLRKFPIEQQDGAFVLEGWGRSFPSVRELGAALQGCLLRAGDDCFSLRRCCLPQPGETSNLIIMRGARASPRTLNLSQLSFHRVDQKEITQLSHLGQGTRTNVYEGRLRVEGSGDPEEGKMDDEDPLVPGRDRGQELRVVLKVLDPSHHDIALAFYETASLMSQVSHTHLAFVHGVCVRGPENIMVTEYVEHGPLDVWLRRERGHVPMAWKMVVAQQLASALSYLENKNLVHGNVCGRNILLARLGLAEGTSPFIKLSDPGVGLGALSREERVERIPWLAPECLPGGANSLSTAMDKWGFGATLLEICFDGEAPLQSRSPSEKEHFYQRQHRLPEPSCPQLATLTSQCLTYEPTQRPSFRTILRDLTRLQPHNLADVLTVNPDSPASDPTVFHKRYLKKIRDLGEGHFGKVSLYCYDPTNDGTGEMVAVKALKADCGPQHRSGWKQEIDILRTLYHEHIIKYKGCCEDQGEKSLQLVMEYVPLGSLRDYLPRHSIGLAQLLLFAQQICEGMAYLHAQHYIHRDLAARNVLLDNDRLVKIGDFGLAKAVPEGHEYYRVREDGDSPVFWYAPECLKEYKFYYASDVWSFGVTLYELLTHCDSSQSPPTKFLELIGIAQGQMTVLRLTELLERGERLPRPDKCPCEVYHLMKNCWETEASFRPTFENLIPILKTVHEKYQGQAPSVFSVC

Set 1
Compound: CNC(=O)Nc1ccc2c(c1)[C@@]1(CC2)OC(=O)N(CC(=O)N(Cc2ccc(F)cc2)[C@@H](C)C(F)(F)F)C1=O
Effect on: cell-free assay
Technique: competition with immobilised ligand
Tested at: 1 µM
Quantity: remaining binding
TBK1 (Homo sapiens, UniProt Q9UHD2): 84%
PIK3CG (Homo sapiens, UniProt P48736): 64%
TLK1 (Homo sapiens, UniProt Q9UKI8): 100%
Non-receptor tyrosine-protein kinase TYK2, JH2 (TYK2, Homo sapiens, UniProt P29597): 68%
STK25 (Homo sapiens, UniProt O00506): 100%
Ribosomal protein S6 kinase alpha-5, N-terminal kinase domain (RPS6KA5, Homo sapiens, UniProt O75582): 74%
ITK (Homo sapiens, UniProt Q08881): 92%
CDK8 (Homo sapiens, UniProt P49336): 96%
CASK (Homo sapiens, UniProt O14936): 66%
PIK3CA (Homo sapiens, UniProt P42336): 28%
MINK1 (Homo sapiens, UniProt Q8N4C8): 78%
MAST1 (Homo sapiens, UniProt Q9Y2H9): 85%
RPS6KB1 (Homo sapiens, UniProt P23443): 100%
GRK4 (Homo sapiens, UniProt P32298): 100%
MAP3K2 (Homo sapiens, UniProt Q9Y2U5): 100%
TGFBR2 (Homo sapiens, UniProt P37173): 95%
NTRK1 (Homo sapiens, UniProt P04629): 41%
CDK16 (Homo sapiens, UniProt Q00536): 83%
RET (Homo sapiens, UniProt P07949): 93%
EGFR (Homo sapiens, UniProt P00533): 100%
MAPK14 (Homo sapiens, UniProt Q16539): 100%
Tyrosine-protein kinase ABL1, phosphorylated (ABL1, Homo sapiens, UniProt P00519, F317L): 78%

Set 2
Sequence: B1 (TRIM63 RING domain)
Technique: yeast two-hybrid
Medium: yeast
Setting: mostly zero background
Baseline: not given
Direction: higher = stronger interaction
Quantity: lacZ reporter activity
B1: TRIM63 RING domain (UniProt Q969Q1); chain PMENLEKQLICPICLEMFTKPVVILPCQHNLCRKCANDIFQAANPYWTSRGSSVSMSGGRFRCPTCRHEVIMDRHGV
UBE2U UBC core domain (UniProt Q5VVX9): 15700
UBE2V1 UBC core domain (UniProt Q13404): 0
UBE2E1 UBC core domain (UniProt P51965): 0
UBE2G2 UBC core domain (UniProt P60604): 0
UBE2V2 UBC core domain (UniProt Q15819): 0
UBE2Q2 UBC core domain (UniProt Q8WVN8): 0

Set 3
Species: mouse
Medium: microsomes or S9
Tested at: 2 µM
Time: 0.5 h
Quantity: remaining compound
Cc1ncc2c(c1-c1nn[nH]n1)-c1ccccc1CC2: 83.3%
CN1CC2(CCN(C(=O)NC3CCCCC3)CC2)CC1C(=O)N1CCOCC1 (stereo not shown): 82.3%
O=C(Cn1nc2c(cc1=O)CCCCC2)Nc1nc[nH]n1: 89.2%
COC(=O)[C@@H](O)c1c(C)nc2[nH]c(C)c(C)c2c1Cl: 11.8%

Set 4
Technique: PRP chromatography estimate
Medium: 1,9-decadiene/PBS
pH: 7.4
Quantity: logD
CC(C)C[C@@H]1NC(=O)[C@H](CC(C)C)NC(=O)[C@H](CC(C)C)NC(=O)[C@@H](C)NC(=O)[C@H](C(C)C)NC(=O)[C@H](C)NC(=O)[C@H](C)NC1=O: -2.63
CCC[C@H]1NC(=O)CSC[C@@H](C(=O)OCC)N(C)C(=O)[C@H](CC(C)C)NC(=O)[C@@H](C)N(C)C(=O)[C@@H](CC(C)C)NC(=O)[C@H](C)N(C)C(=O)[C@H]2CCCN2C(=O)[C@H](CC(C)C)NC(=O)CN(C)C1=O: -0.0604
CC(C)C[C@@H]1NC(=O)[C@H](C)NC(=O)[C@H](Cc2cscn2)NC(=O)[C@H](C)NC(=O)[C@H](C(C)C)NC(=O)[C@H](CC(C)C)NC(=O)[C@@H](CC(C)C)NC1=O: -2.08
CC(C)C[C@@H]1NC(=O)[C@H](C)NC(=O)[C@@H](CC(C)C)NC(=O)[C@H](C)NC(=O)[C@H](CC(C)C)NC(=O)[C@H](CC(C)C)NC(=O)[C@@H](CC(C)C)NC1=O: -0.109

Set 5
Cell line: mouse MPNST tumor cells
Technique: high-content immunofluorescence imaging
Item: nuclear SOX9
Tested at: 10 µM
Time: 12 h
Setting: mean of 2 replicates
Baseline: DMSO control
Direction: higher = more nuclear SOX9
Quantity: nuclear SOX9 intensity
N#Cc1cccc(-c2c[nH]c3ncnc(N4CCOCC4)c23)c1: 126 % of DMSO
CCOC(=O)N1CCC(CN(Cc2ccc(Cl)cc2)Cc2ccc([N+](=O)[O-])s2)C1 (stereo not shown): 135 % of DMSO
Cc1ccc(NC(=O)c2cccc(N(C)C)c2)cc1NC(=O)c1ccc(O)cc1: 127 % of DMSO

Set 6
Organism: Sarcocystis neurona
Effect on: parasite growth
Tested at: 10 µM
Quantity: inhibition
C[C@H]1C[C@@H]2[C@H]([C@@H](O)C[C@@]3(C)[C@H]2CC[C@]3(O)C(=O)CO)[C@@]2(C)C=CC(=O)C=C12: -20.3%
COCc1c(C(C)C)nc(C(C)C)c(/C=C/[C@@H](O)C[C@@H](O)CC(=O)O)c1-c1ccc(F)cc1: 30.3%
C[C@@H](c1ncncc1F)[C@](O)(Cn1cncn1)c1ccc(F)cc1F: -21.7%

Further values, each from its own experiment
COc1cc2c(N3CCN(C(=O)Nc4ccc(OC(C)C)cc4)CC3)ncnc2cc1OCCCN1CCCCC1 — viability (A-375; 100 µM, 60 h): 5.17%
NC(N)=NC(=O)c1nc(Cl)c(N2CCCCCC2)nc1N — fold over basal (BDKRB2 (Homo sapiens, UniProt P30411); β-arrestin recruitment, agonist, PRESTO-Tango; 10 µM; baseline: untreated): 1.07
CC(C)n1cnc(-c2ccc(F)cc2)c1-c1ncc(C(=O)Nc2ccc(N3CCN(C)CC3)cc2)[nH]1 — grade 5 ventricular extrasystoles (human, idiopathic pulmonary fibrosis; 30 mg once daily, trial, treatment-emergent): 0%
CN1CC[C@H](c2c(O)cc(O)c3c(=O)cc(-c4ccccc4Cl)oc23)[C@H](O)C1 — mRNA level (HuT78; qPCR, item: RARA; concentration not given, 24 h, unit not given; baseline: untreated control): 1.12 and 1.09 and 0.95

Repeated from above (set 1):
ITK (Homo sapiens, UniProt Q08881): 92%
Ribosomal protein S6 kinase alpha-5, N-terminal kinase domain (RPS6KA5, Homo sapiens, UniProt O75582): 74%
NTRK1 (Homo sapiens, UniProt P04629): 41%
MAP3K2 (Homo sapiens, UniProt Q9Y2U5): 100%
RPS6KB1 (Homo sapiens, UniProt P23443): 100%
MAPK14 (Homo sapiens, UniProt Q16539): 100%
TGFBR2 (Homo sapiens, UniProt P37173): 95%
